Measured values gathered from unrelated publications.
Lines come from different studies, so protocols differ. ≈ marks a conversion by molar mass, not a printed value.

Cc1ccc2nc(C(F)(F)F)c(C(=O)NCc3cccc(Cl)c3)n2c1 — kinetic solubility (CLND; phosphate-buffered saline; 1 (unit not given), pH 7.4): 9 µM (≈ 3.31 µg/mL)
CCc1nn(C)c2nc(-c3ccc(C(=O)O)cc3)nc(NCc3ccccc3)c12 — kinetic solubility (PBS; 2 h, pH 7.4): 190 µM (≈ 73.6 µg/mL)
CC(C)[C@@H](CN1CC[C@@](C)(c2cccc(C(N)=O)c2)[C@@H](C)C1)NC(=O)[C@H]1Cc2ccc(O)cc2CN1 — kinetic solubility (10 mM phosphate buffer; 90 min, pH 3, room temperature, 1% DMSO): 36 µM (≈ 17.7 µg/mL)
CCc1ccc([C@@H]2C[C@H](C(F)(F)F)n3ncc(C(=O)NCc4ccc(OC)cc4)c3N2)cc1 — kinetic solubility (CLND; phosphate buffered saline; 1 (unit not given), pH 7.4): 0 µM
CC(C)C[C@H](NC(=O)[C@H](C)NC(=O)[C@H](Cc1cn(CCc2ccc(O)c(C=O)c2)nn1)NC(=O)[C@H](Cc1ccccc1)NC(=O)CCNC(=S)Nc1ccc2c(c1)C(=O)OC21c2ccc(O)cc2Oc2cc(O)ccc21)C(=O)N[C@@H](CC(=O)O)C(=O)N[C@@H](Cc1c[nH]c2ccccc12)C(=O)N[C@@H](CO)C(=O)N[C@@H](Cc1c[nH]c2ccccc12)C(=O)N[C@@H](CC(C)C)C(=O)N[C@@H](CCC(N)=O)C(=O)N[C@H](C(=O)N[C@@H](CCC(=O)O)C(N)=O)[C@@H](C)O — kinetic solubility (dynamic light scattering; PBS with 1% DMSO): 0.125 µM (≈ 0.268 µg/mL)
CCn1ccc(-c2cc(-c3cnn(C)c3)cc([C@@H](C)NC(=O)c3cc(OCCN(C)C)ccc3C)c2)n1 — kinetic solubility (phosphate buffer; 24 (unit not given), pH 7.4): 180 µM (≈ 90.1 µg/mL)
Cc1ncsc1-c1ccc(CNC(=O)[C@@H]2C[C@@H](O)CN2C(=O)[C@@H](NC(=O)CN2CCN(C3CN(CCNC(=O)c4cc5c(cc4CS(C)(=O)=O)-c4cn(C)c(=O)c6[nH]cc(c46)CN5c4ncc(F)cc4F)C3)CC2)C(C)(C)C)cc1 — kinetic solubility (Sf9 cell culture medium): 120 µM (≈ 136 µg/mL)
Cc1ccc2nc(C)c(C(=O)NCc3cccs3)n2c1 — kinetic solubility (CLND; phosphate-buffered saline; 1 (unit not given), pH 7.4): 339 µM (≈ 96.7 µg/mL)
CC(C)C[C@@H]1NC(=O)[C@H](C(C)C)N(C)C(=O)[C@@H](CC(C)C)NC(=O)[C@@H](Cc2ccccc2)NC(=O)[C@@H]([C@H](OCc2ccccc2)c2ccccc2)NC1=O — kinetic solubility: 7 µM (≈ 5.18 µg/mL)

Repeated from above:
CCc1nn(C)c2nc(-c3ccc(C(=O)O)cc3)nc(NCc3ccccc3)c12 — kinetic solubility (PBS; 2 h, pH 7.4): 190 µM (≈ 73.6 µg/mL)
